Earlier results, collected from citations in different studies.
Numbered parts are unrelated; values within a part may stem from several laboratories.

Set 1
Organism: Cryptosporidium parvum
Technique: high-throughput screen
Concentration: concentration not given
Endpoint: activity
CCCCC(=O)N(Cc1ccc(-c2ccccc2-c2nnn[nH]2)cc1)[C@H](C(=O)O)C(C)C: inactive
O=C(c1ccccc1)c1ccc2n1CCC2C(=O)O (stereo not shown): inactive
Oc1ccc(/C=C/c2cc(O)cc(O)c2)cc1: inactive
CC1=NS(=O)(=O)c2cc(Cl)ccc2N1: inactive

Other studies, line by line
CO[C@@H](C)c1c(Nc2ccc([C@H](N(C)C(=O)C3CCS(=O)(=O)CC3)C(F)(F)F)cc2)cnc2cc(Cl)nn12  IC50 (FLT3; enzyme activity, kinase panel): 3.5 µM
Cn1cncc1-c1c(F)cncc1NC(=O)c1c(N)nn2cc(F)cnc12  Cmax (human, plasma; 270 mg daily, steady state): < 4000 ng/mL
C[C@@H]1CN(c2cc(-c3n[nH]c4ccc(OC5(C)CC5)cc34)ncn2)C[C@H](C)O1  IC50 (HTR2B; radioligand binding): 1.17 µM
Cc1cc(-c2cc(Cl)ccc2OCCn2c(C)nc3cc(C(F)(F)F)cc(C#N)c3c2=O)c2scc(C(=O)O)c2n1  activity (eIF4E cap-binding site; fluorescence polarization): 85 nM
O=C(Nc1nc2ccccc2s1)c1cccc2c1CN(c1nc(C(=O)O)c(CCOc3ccc(-n4ncc5cncnc54)cc3)s1)CC2  EC50 (BCL2L1; cell-based): > 10 µM
Cn1nc(C(F)(F)F)cc1-c1cnc(N2CCc3cc(S(=O)(=O)Nc4c(F)cc(Cl)cc4F)cc(N4CCCC4=O)c32)nc1  IC50 (MGAT2 (human); cellular activity): 0.16 µM

Excerpt of the above (other studies, line by line):
Cc1cc(-c2cc(Cl)ccc2OCCn2c(C)nc3cc(C(F)(F)F)cc(C#N)c3c2=O)c2scc(C(=O)O)c2n1  activity (eIF4E cap-binding site; fluorescence polarization): 85 nM
